Published values of several laboratories.
A part holds a random share of what one study measured.

Sample 1 — method: protein-binding microarray; form: double-stranded DNA, one strand shown; matrix: in vitro; tested at: not given; direction: higher = stronger binding
Target: Protein C-ets-1 (ETS1, Homo sapiens, UniProt P14921, residues 1-441, K379A, full length assumed)
Notes: k-mer, scored over probes, only values ≥0.25
Target sequence (chain): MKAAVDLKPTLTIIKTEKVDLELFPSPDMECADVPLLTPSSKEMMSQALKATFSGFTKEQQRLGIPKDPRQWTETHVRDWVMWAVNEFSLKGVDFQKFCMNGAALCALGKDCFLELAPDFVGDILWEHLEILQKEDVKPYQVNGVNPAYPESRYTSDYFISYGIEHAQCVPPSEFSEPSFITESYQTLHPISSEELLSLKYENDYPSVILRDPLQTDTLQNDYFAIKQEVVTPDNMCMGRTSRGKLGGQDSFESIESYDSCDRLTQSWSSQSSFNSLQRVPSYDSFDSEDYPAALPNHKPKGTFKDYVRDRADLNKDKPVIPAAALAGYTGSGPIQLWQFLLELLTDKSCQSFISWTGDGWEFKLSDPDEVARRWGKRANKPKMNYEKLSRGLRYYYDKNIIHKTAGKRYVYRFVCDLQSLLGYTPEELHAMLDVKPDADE
Sequence	E-score
ATTTCCCG	0.267
CAACCGAC	0.373
TGTCGGAA	0.283
GTCATGAC	0.306
CAGACACC	0.256
ACCGGTTC	0.306
ACCGGGAT	0.435
ACATCCCG	0.274

Sample 2 — method: universal PBM; form: double-stranded DNA, one strand shown; matrix: in vitro; tested at: 600 nM; direction: higher = stronger binding
Target: Sal-like protein 4, full length isoform A (SALL4, Homo sapiens, UniProt Q9UJQ4, residues 1-1053)
UniProt Q9UJQ4, sequence (whole entry, looked up): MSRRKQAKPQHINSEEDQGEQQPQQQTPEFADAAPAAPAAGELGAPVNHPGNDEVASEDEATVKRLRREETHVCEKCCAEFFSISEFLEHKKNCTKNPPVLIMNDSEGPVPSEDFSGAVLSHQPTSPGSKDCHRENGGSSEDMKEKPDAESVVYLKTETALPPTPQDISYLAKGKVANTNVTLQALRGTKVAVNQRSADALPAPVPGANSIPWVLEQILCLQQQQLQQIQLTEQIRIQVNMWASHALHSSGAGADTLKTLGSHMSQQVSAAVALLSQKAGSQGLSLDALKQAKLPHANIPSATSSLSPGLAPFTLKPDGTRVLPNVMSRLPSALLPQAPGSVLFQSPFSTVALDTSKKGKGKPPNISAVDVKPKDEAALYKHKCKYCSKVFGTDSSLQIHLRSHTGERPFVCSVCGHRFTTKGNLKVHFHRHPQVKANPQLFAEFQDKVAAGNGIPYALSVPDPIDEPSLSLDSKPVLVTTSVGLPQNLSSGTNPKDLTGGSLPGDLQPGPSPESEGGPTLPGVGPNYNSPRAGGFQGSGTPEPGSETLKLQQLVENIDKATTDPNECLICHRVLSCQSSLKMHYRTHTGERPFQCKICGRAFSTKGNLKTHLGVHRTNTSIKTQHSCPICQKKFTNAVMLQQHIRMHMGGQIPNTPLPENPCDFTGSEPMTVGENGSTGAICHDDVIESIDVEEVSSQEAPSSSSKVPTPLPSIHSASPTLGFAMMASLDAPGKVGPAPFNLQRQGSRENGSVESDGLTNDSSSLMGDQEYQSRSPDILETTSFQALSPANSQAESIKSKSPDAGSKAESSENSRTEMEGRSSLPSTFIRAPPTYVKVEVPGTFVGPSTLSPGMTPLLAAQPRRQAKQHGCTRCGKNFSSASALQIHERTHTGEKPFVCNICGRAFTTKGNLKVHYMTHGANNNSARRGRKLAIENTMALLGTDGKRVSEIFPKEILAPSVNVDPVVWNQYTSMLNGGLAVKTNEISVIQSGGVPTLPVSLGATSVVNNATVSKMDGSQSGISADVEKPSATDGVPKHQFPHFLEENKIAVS
Notes: 8-mer, flanks averaged, mean of replicates
Sequence	E-score
CAGTCCCG	-0.295
ACGGACCG	-0.332
CAGACTTC	-0.0435
ATCTTGGA	0.0943
ACTACTCA	0.163
CTGACCAG	-0.196

Sample 3 — method: RNA Bind-n-Seq; form: RNA; matrix: in vitro; tested at: not given; reference: input RNA pool; direction: higher = stronger binding
Target: RING finger protein unkempt homolog, zinc fingers 1-6, GST-SBP tag (UNK, Homo sapiens, UniProt Q9C0B0, residues 30-357)
UniProt Q9C0B0, sequence (30-357, looked up): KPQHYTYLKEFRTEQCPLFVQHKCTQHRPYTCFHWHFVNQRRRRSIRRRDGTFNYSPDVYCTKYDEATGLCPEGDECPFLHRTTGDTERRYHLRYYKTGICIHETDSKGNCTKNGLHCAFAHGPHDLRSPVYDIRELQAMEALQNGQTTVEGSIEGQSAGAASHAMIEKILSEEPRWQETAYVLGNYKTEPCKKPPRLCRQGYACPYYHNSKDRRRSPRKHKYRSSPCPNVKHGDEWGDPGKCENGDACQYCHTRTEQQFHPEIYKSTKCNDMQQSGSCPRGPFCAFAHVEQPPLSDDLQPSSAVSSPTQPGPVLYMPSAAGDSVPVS
Notes: RNA with constant flanks, human-mouse chimeric sites, ends assumed
Sequence	bound/input enrichment [ratio]
GGGAGUUCUACAGUCCGACGAUCCUUAAUGUUAAUAUUUUUGAAUAAAUGUAAAACCAUGGUCUGCUUUUGGUACAACACGCAUUAAUAAAAGGUUAAGUUUUGUUUUCCCUCCACUGAAUAUUUAACAUCUCAGAAAAAAACCAACAGAGGAUUGAGCAUCA	0.285
GGGAGUUCUACAGUCCGACGAUCCCUGCUCAGAUCACCAUGAAAGUAAUCCAAGGCCUAUAUAGUGGGGUCACCACAGUGGAACUGGACACUUUGGCUGCUGAGACAGCCGCGACCUUGACCACGAAGCACCCUGACUAUGCCCAACAGAGGAUUGAGCAUCA	0.128
GGGAGUUCUACAGUCCGACGAUCCUGUGACUGAUGGCAGCUACCUGAGUGGCAGCUGAAGUUGACUCCCUCUCCUUGCCUGAACCCCCCCCCACUGCCCCCCCAUCCCCCAGUGUCGGCUAUUCUCUGGUCUCUGCACGGUUCCAACAGAGGAUUGAGCAUCA	1.32
GGGAGUUCUACAGUCCGACGAUCUAAGUCCUGUGCCAGCAAUUUAUCCCAUAUAUUUUAAAUUCUGGACCAAUAGUGUUUGUUUCCUGAUUAUUGUAUCCAAUACUUUGCCUAGUAUGUAACUCACUCUUACUGAUAAUAAAACAACAGAGGAUUGAGCAUCA	4.33

Single results of other studies
Molecule	target	test	system	conditions	how to read	endpoint	value
PhoQ, residues 284 288 289 292 302 303 SCCLKL	PhoP, residues 12 14 15 18 19 TQAIL (Escherichia coli, UniProt P23836)	Sort-seq, measured: YFP reporter	E. coli	PhoQ-PhoP variant library, together with: 10 µM Mg2+	reference: high Mg2+ state, higher = stronger signaling	fold induction	4.04
